Experimental data pooled from the literature.
Parts stem from different laboratories: compare values within a part only.

Block 1 — technique: protein-binding microarray; form: double-stranded DNA, one strand shown; matrix: in vitro; tested at: not given; direction: higher = stronger binding; measurement: E-score
Target: Protein C-ets-1 (ETS1, Homo sapiens, UniProt P14921, residues 1-441, full length assumed)
Notes: k-mer, scored over probes, only values ≥0.25
Target sequence (chain): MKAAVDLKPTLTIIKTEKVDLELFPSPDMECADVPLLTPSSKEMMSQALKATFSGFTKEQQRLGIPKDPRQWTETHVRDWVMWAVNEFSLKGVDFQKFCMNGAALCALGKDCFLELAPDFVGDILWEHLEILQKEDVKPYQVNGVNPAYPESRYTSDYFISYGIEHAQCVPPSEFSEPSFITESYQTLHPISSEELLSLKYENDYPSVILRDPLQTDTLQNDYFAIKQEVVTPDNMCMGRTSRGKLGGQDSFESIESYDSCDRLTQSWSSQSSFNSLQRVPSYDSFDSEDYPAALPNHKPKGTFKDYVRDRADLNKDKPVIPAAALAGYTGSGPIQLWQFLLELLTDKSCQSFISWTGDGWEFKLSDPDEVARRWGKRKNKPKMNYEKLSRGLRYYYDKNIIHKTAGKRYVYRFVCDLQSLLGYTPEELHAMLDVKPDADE
AAGTCCGG: 0.335
CGTACTTC: 0.292
AACATCCC: 0.312
ATCCGCAA: 0.271
CCTATCCG: 0.29
ACGGAAGG: 0.441
GGAACTTA: 0.31
ATTGCGGA: 0.312
CCTGTCCC: 0.259
CATCCGTC: 0.423

Block 2 — technique: RNA Bind-n-Seq; form: RNA; matrix: in vitro; tested at: 20 nM; notes: 6-mer, flanks averaged, single round; with: 150 mM KCl; baseline: input library; direction: higher = stronger binding; measurement: 6-mer enrichment (R)
Target: TAR DNA-binding protein 43, full length, His tag (TARDBP, Homo sapiens, UniProt Q13148, residues 1-414)
CUAAGU: 0.632
AUUGUA: 0.652
GUAGAU: 0.868
AGGCGU: 1.36
CUGCGU: 0.825
CAUUUA: 0.594

Block 3 — technique: protein-binding microarray; form: double-stranded DNA, one strand shown; matrix: in vitro; tested at: 250 nM; notes: 60-bp whole probe; with: salmon DNA 0.4 mg/ml; baseline: random background probes; direction: higher = stronger binding; measurement: log fluorescence; shared flanks, not repeated: GCCTAGCAC … GTCTTGATTCGCTTGACGCTGCTG
Target: Interferon regulatory factor 5, full length, phosphomimetic (IRF5, Homo sapiens, UniProt Q13568-2, residues 1-514, K96S/S451D/S453D/S456D/S462D)
GACCATTCCAGTTTCGAGACGTGCTAG: 5.41 z-score
TTAGGTATCCTTATCCTTGAGTGCTAG: 0.182 z-score
CCCTGTTTCTACTGTCTGTTTGTGCTA: 1.73 z-score
GACGGTATCCTTCTCCTGAGGTGCTAG: 0.0142 z-score
AGATTCCTCTCACCTCGGCCTGTGCTA: -0.0398 z-score
TTTTGCTTTCCTTTATGTACGTGCTAG: 5.34 z-score

Further values, each from its own experiment
PhoQ, residues 284 288 289 292 302 303 SIHLQL
fold induction (PhoP, residues 12 14 15 18 19 IQFRS (Escherichia coli, UniProt P23836); Sort-seq, refers to: YFP reporter; E. coli; PhoQ-PhoP variant library, with: 10 µM Mg2+; baseline: high Mg2+ state, higher = stronger signaling): 13.7

A few entries again (block 1):
ATCCGCAA: 0.271
CCTGTCCC: 0.259
CCTATCCG: 0.29
